Measured values from different studies.
Each line is one published result; not all experiments were run side by side.

| Compound | organism | test | test system | setting | MIC |
| --- | --- | --- | --- | --- | --- |
| COc1ccc(C2=[N+]([O-])c3ccccc3N3CCCN=C23)cc1 | Fusobacterium nucleatum |  |  |  | 0.5 to 2 µg/mL |
| CCCCCCCC(=O)NCCCC[C@H](NC(=O)CCCCCCC)C(=O)N[C@@H](CCCCNC(=O)CCCCCCC)C(=O)NCC(=O)NCC(=O)NCC(=O)N[C@@H](CS)C(=O)N[C@@H](CCCNC(=N)N)C(=O)N[C@@H](CCCCN)C(=O)N1CCC[C@H]1C(N)=O | Candida albicans | broth microdilution | fluconazole-resistant 56214, RPMI-1640 | 48 h, 30 °C | > 128 µM |
| C#CCOc1ccc(CN[C@@]2(C)C[C@H](O[C@H]3[C@H](Oc4c5cc6cc4Oc4ccc(cc4Cl)[C@@H](O)[C@@H](NC(=O)[C@@H](CC(C)C)NC)C(=O)N[C@@H](CC(N)=O)C(=O)N[C@H]6C(=O)N[C@H]4C(=O)N[C@H](C(=O)N[C@H](C(=O)O)c6cc(O)cc(O)c6-c6cc4ccc6O)[C@H](O)c4ccc(c(Cl)c4)O5)O[C@H](CO)[C@@H](O)[C@@H]3O)O[C@@H](C)[C@H]2O)cc1OC | Staphylococcus simulans | broth microdilution | 22, cation-adjusted Mueller-Hinton broth |  | 0.616 µM |
| CCCCCCCCCCCCCC(=O)N[C@H]1C(=O)N[C@@H](CN)C(=O)N[C@@H](CO)C(=O)N[C@@H](Cc2ccc(O)cc2)C(=O)O[C@H]1C | Staphylococcus aureus |  | SH1000 | added: phosphatidylethanolamine, molar ratio 0.5 | 2 µg/mL |
| CCCCCCCCCC(=O)NCCCC[C@H](NC(=O)CCCCCCCCC)C(=O)N[C@@H](CCCCNC(=O)CCCCCCCCC)C(=O)NCC(=O)NCC(=O)NCC(=O)N[C@@H](CS)C(=O)N[C@@H](CCCNC(=N)N)C(=O)N[C@@H](CCCCN)C(=O)N1CCC[C@H]1C(=O)N[C@@H](CS)C(=O)N[C@@H](CCCNC(=N)N)C(=O)N[C@@H](CCCCN)C(=O)N1CCC[C@H]1C(N)=O | Candida albicans | broth microdilution | 56452, RPMI-1640 | 48 h, 30 °C | 32 µM |
| CC(C)CCCCCCCCC/C=C/C(=O)N[C@@H](CC(=O)O)C(=O)N[C@H]1CNC(=O)[C@@H]2CCCN2C(=O)[C@H](C(C)C)NC(=O)[C@@H](CN)NC(=O)CNC(=O)[C@H](CC(=O)O)NC(=O)CNC(=O)[C@H](CC(=O)O)NC(=O)[C@H](CC(=O)O)NC(=O)[C@H]2CCCCN2C1=O | Staphylococcus aureus | broth microdilution | VISA LIM strain 2, Mueller-Hinton broth, Mg2+ 10 mg/L | 16 h, added: Ca2+ 2.5 mM | 4 µg/mL |
| CCCCCCCCn1cc[n+](CCCCOc2cc(OCCCC[n+]3ccn(CCCCCCCC)c3)cc(OCCCC[n+]3ccn(CCCCCCCC)c3)c2)c1.[Br-].[Br-].[Br-] | eight bacterial strains |  |  |  | ≤ 2 µM |
| CCCCCCCC(=O)NCCCC[C@H](NC(=O)CCCCCCC)C(=O)N[C@@H](CCCCNC(=O)CCCCCCC)C(=O)NCC(=O)NCC(=O)NCC(=O)N[C@@H](CS)C(=O)N[C@@H](CCCNC(=N)N)C(=O)N[C@@H](CCCCN)C(=O)N1CCC[C@H]1C(=O)N[C@@H](CS)C(=O)N[C@@H](CCCNC(=N)N)C(=O)N[C@@H](CCCCN)C(=O)N1CCC[C@H]1C(=O)N[C@@H](CS)C(=O)N[C@@H](CCCNC(=N)N)C(=O)N[C@@H](CCCCN)C(=O)N1CCC[C@H]1C(=O)N[C@@H](CS)C(=O)N[C@@H](CCCNC(=N)N)C(=O)N[C@@H](CCCCN)C(=O)N1CCC[C@H]1C(N)=O | Candida albicans | broth microdilution | 17546, RPMI-1640 | 48 h, 30 °C | 32 µM |
| CC1(C)S[C@@H]2[C@H](NC(=O)[C@H](NC(=O)C3=C(O)C(c4ccccc4F)NC3=O)c3ccccc3)C(=O)N2[C@H]1C(=O)O (stereo partly shown) | Escherichia coli | broth microdilution | isolate IU, CTX-M-14, TEM-1 | no clavulanic acid | > 200 µg/mL |
| [O-][N+]1=C(c2ccccc2)C2=NCCCN2c2ncccc21 | Fusobacterium nucleatum |  |  |  | 0.06 to 0.25 µg/mL |
| CC(=O)N[C@@H](CC(C)C)C(=O)N[C@H]1CSSC[C@@H](C(=O)N2CCC[C@H]2C(N)=O)NC(=O)[C@H]([C@@H](C)O)NC(=O)[C@H](C(C)C)NC(=O)[C@H]([C@@H](C)O)NC(=O)CNC(=O)[C@H](CC(C)C)NC(=O)[C@H](Cc2ccccc2)NC(=O)[C@H](Cc2ccc(O)cc2)NC(=O)[C@H](CC(C)C)NC(=O)[C@H](CCCCN)NC(=O)[C@H](Cc2ccccc2)NC(=O)[C@H](CCCNC(=N)N)NC(=O)[C@H](CCC(N)=O)NC(=O)[C@H](CC(C)C)NC(=O)[C@H](CCCCN)NC(=O)[C@@H]2CCCN2C(=O)[C@H](CCCCN)NC(=O)[C@H](C(C)C)NC(=O)[C@H](CCCCN)NC(=O)[C@H](Cc2ccc(O)cc2)NC(=O)[C@H]([C@@H](C)O)NC1=O | Aeromonas hydrophila | broth dilution |  | 24 h | 1.25 to 2.5 µM |
| CC[C@H](C)[C@H](N)C(=O)N[C@@H](CCCNC(=N)N)C(=O)N[C@H](C(=O)N[C@@H](Cc1c[nH]c2ccccc12)C(=O)N[C@@H](Cc1ccccc1)C(=O)N[C@H](C(=O)N[C@@H](CCCCN)C(=O)N[C@H](C(=O)N[C@@H](CCCNC(=N)N)C(=O)N[C@@H](CCCCN)C(=O)N[C@@H](CCSC)C(=O)N[C@@H](CCCCN)C(=O)N[C@@H](C)C(=O)N[C@H](C(=O)N[C@@H](Cc1ccc(O)cc1)C(=O)N[C@@H](Cc1c[nH]cn1)C(=O)N[C@H](C(N)=O)[C@@H](C)O)[C@@H](C)CC)C(C)C)[C@@H](C)CC)C(C)C | Listeria monocytogenes | broth dilution | KCTC 13064 |  | 50 µM |
| CCCCCCCC(=O)NCCCC[C@H](NC(=O)CCCCCCC)C(=O)N[C@@H](CCCCNC(=O)CCCCCCC)C(=O)NCC(=O)NCC(=O)NCC(=O)N[C@@H](CS)C(=O)N[C@@H](CCCNC(=N)N)C(=O)N[C@@H](CCCCN)C(=O)N1CCC[C@H]1C(=O)N[C@@H](CS)C(=O)N[C@@H](CCCNC(=N)N)C(=O)N[C@@H](CCCCN)C(=O)N1CCC[C@H]1C(N)=O | Candida albicans | broth microdilution | 14936, RPMI-1640 | 48 h, 30 °C | 4 µM |
